# Measured values of several laboratories.
# Every numbered part comes from another study and shows a few of its results, in no order.

# Block 1 — technique: RNA Bind-n-Seq; form: RNA; matrix: in vitro; tested at: not given; relative to: input RNA pool; reading: higher = stronger binding
# Target: RING finger protein unkempt homolog, zinc fingers 1-6, GST-SBP tag (UNK, Homo sapiens, UniProt Q9C0B0, residues 30-357)
# Notes: RNA with constant flanks, human and mouse sites, ends assumed
# Constant ends, left off below: GGGAGUUCUACAGUCCGACGAUC … CAACAGAGGAUUGAGCAUCA
# Residues (chain): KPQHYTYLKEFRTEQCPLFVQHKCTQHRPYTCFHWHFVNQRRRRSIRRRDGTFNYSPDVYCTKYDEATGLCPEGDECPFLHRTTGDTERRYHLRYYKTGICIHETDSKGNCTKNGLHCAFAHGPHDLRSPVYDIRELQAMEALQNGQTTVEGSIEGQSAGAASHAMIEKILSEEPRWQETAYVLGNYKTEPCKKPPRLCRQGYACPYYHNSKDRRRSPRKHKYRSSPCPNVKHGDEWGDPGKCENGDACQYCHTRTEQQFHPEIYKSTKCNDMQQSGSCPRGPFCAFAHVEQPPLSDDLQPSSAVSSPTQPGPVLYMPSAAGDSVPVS
Sequence,bound/input enrichment [ratio]
AGUCAGAAUUUAUAGCUUUCACUAUGUCCAAGACUAGGACUGGGUUAUAAAGAUUUUCUUUUGUGAAGGAAAAUAAAAGAAAAUUUGCCACUACUGCAUUUACUUUACUAUUGUAAACUU,0.393
GAUCAAGCCAGAUCAGCAUUCUCUAACUUGUUUGGUGGGGAACCAUUGUCAUACACCCGGUUUAGCCUUGCUCGGCAAGUAGAUGGAGAUAACAGUCAUGUGGAGAUGAAACUGGCUGCA,0.979
GCAGGAGUCCGUCAGCAAGAAGGGGAGAGUCGGCUCAAUCUGGUGCAGAGAAAUGUUAAUGUCUUCAAAUUCAUUAUUCCUCAGAUCGUCAAGUACAGUCCUGAUUGCAUCAUAAUUGUG,0.226
GUGGCCUUCCAGUUCACAGUCACCCCUGAUGGCAUCGAUCUCCGCCUGAGCCAUGAAGCCCUCAAACAGAUCUGCCUGUCAGGGCUGCACUCCUGGAAGAAGAAGUUCAUCCGAUUCAAG,0.0871
AAUGCAUCUCUUCAAGACCAUAUUUACCCGAGCUGUUUUGGGAACACUCCAGACUGGAAUAGUUCUAAAUUUAUAAGUCUUUGGGAAUCAGAAAUGAUGAAUGAUAAGAACUGGAACCCU,0.151
GUACCUAGAAAUGCUGAACACUACAAGCAAAGACAUUCACACGGGCAUUAUGGCUGUGAAUAUAGGAAGGAUCCAAAAAGACCCGUCGCGUGGAGAAUGGACAGUGAGAAACAUGGACAG,0.537
AUCUGCCUUCAUGCCUUCUACUAUGCCAUAUGGAAACGAUAUGGUGCCCUCCCUGAGAGAUAUAACUGGCAGCUGCAGGCCCCUGACGUUCUCUUCUACCCACUGAGACCAGAGUUAGUG,0.441
CAGUCAUGGAGAAAAACAUAUUAAAAUAAUUUCAUGGCAUUGAUGUUAAUUCUAGUCUAUUAGUUUUAUAAAAGUUAGGAUUCUUAUUUAGGAACAACAGGAAAUGACUGUUAAGGAGAA,19.9
AUUGGGAACAAAUCAGUGGUACAAGUGAAAAACUUUUUUGUAAAUUAUCGACGCCGCUUCAACAUAGAUGAAGUUUUACAAGAAUGGGAGGCAGAACAUGGUAAAGAAGAGACCAAUGGG,0.466
CUUCCAAAAGAAGAAAACCCCACAAGUUUUCCAUUUUCUUAAAGUAGGAAAAAAUGAACAGUAAUAAUUAUGAUGAAGAUGAUAGUAGUGCUAUGGGAUGUGUGGACUGUUUAGUGUGUU,2.31
UGUGGCGGCUUGGGCGGGACGCACGCGGUGCAGUUCAAGAUGGCGGAUGCAGAAGUAAUUACAUUCCCAAAGAAGCAUAAGAAGAAAAAAGACCGGAAGCCAUUACAAGAAGAUGAUGUU,0.588

# Block 2 — technique: protein-binding microarray; form: double-stranded DNA, one strand shown; matrix: in vitro; tested at: 940 nM top; notes: 60-bp whole probe; with: salmon DNA 0.4 mg/ml; relative to: random background probes; reading: higher = stronger binding; constant ends, left off below: GCCTAGCAC … GTCTTGATTCGCTTGACGCTGCTG
# Target: Interferon regulatory factor 5, full length, phosphomimetic (IRF5, Homo sapiens, UniProt Q13568-2, residues 1-514, S451D/S453D/S456D/S462D)
Sequence,fitted relative affinity
GACGGACTGGGCTTCGGGACGTGCTAG,-0.637 z-score
TCACCTTCCTCTTTTACACTGTGCTAG,1.23 z-score
GGCGGACTGGACTATCGGGACGTGCTA,-0.306 z-score
GACGGTTCCCTTTTCCCGACGTGCTAG,1.66 z-score
ATAGGACTGGGTATCGGTTAGTGCTAG,3.37 z-score
TTAGGTTTCCGACTGGGTTAGTGCTAG,0.424 z-score
TTAGGTTCCGGTTTCGGGTAGTGCTAG,6.66 z-score
TTTGGACTGGGTATCGGTTAGTGCTAG,3.18 z-score
TCATTTCCCAACATCAGACTGTGCTAG,1.19 z-score
TTAGGTTTCGACTATCGGTGAGTGCTA,9.82 z-score
AGTCCTGTCCAAGATGAGGAGTGCTAG,-0.325 z-score
TTAGGTATCGGTTGCGGTTAGTGCTAG,10 z-score
TTGGGACTGCTTATCCTTTAGTGCTAG,-0.513 z-score
TTAGATATCAGTTTGGATTAGTGCTAG,0.0219 z-score
CAGAAAATGGAAACTCGTATGGTGCTA,-0.111 z-score
CTAGTTGTACTTTCTATCTCTGTGCTA,1.24 z-score
GACGGTCTCCTTCTCCTGAAGTGCTAG,0.355 z-score
TTAGATTTCAGTCTCGAATAGTGCTAG,1.76 z-score
GTAGGTTTCGGTTTCGGTTAGTGCTAG,16.4 z-score
GACGATATCGGGCCTGGAGACGTGCTA,-0.515 z-score
GACGATTTCAGTCTCGAGGCGTGCTAG,1.48 z-score
TTAGGTTTCCTTCTCCTTTTGTGCTAG,2.09 z-score
TCATCTTTCACTGCTGCACTGTGCTAG,1.58 z-score

# Block 3 — technique: RNA Bind-n-Seq; form: RNA; matrix: in vitro; tested at: 200 nM; notes: whole 134-nt RNA, ends assumed; with: 150 mM KCl; relative to: input library; reading: higher = stronger binding
# Target: Fragile X messenger ribonucleoprotein 1, C-terminal low-complexity region (Fmr1, Mus musculus, UniProt P35922)
# Constant ends, left off below: GGGAGUUCUACAGUCCGACGAUC … UGGAAUUCUCGGGUGUCAAGG
Sequence,log2 enrichment
GUCCUGUGCUACACAUCGUAUGUACCGAAUCGGGAAAAAGGAAAAAGGGGAAAAAGGGGAAAGUAUUAUGUUACGCCGUUCGGAUCUGCA,-0.0419
UAACUUUAGAGGAGGAUCUCAUGGAUAUGGCAGUGGACGUGGAUUUGGGGAUGGCUAUAAUGGGUAUGGAGGAGGACCUGGAGGUGGCAA,0.37
UAACUUUAGAGGAGGAUCUGAUGGAUAUGGCAGUGAACGUGGAUUUGGGGAUGGCUAUAAUGGGUAUGGAGGAGGACCUGGAGGUGGCAA,0.255
UGGGAGGUGGAUUUUGUUUAUUUUUUUAGCUCAUUUCCAGGGGUGGGAAUUUUUUUUUAGUAUGUGUCAUGAAUAAAGUUGUUUUUGAAA,0.587
ACCAUGCAGGUGGGAAUCUUUGGGAAGUGGGGCAAGGGGGGGAUAGGGAGGGGGGUAACACUUUGGGAACAGGUGGUCCCAGGUCGUUUC,0.598
GCAGGAAGUAAAAACAAAUGGAAAUGCUUCGGAUAGUGGCAGGGGUGGGGGUUGCUAAGGAAAGGGUGCGAUGGGAGUGGGUAAAGAGUU,0.257
UGGCCCUGGUGGCAUGCGGGGAGGAAGAGGUGGCCUCAUGGAUCGUGGUGGUCCCGGUGGUAUGUUCAGAGGUGGCCGUGGUGGAGACAG,-0.00748
GUCCUGUGCUACACAUCGUAUGUACCGAAUCGGAAAAAGGUUUUUUUGGAAAAAAAGGAAAGUAUUAUGUUACGCCGUUCGGAUCUGCAC,-1.09
UGGGAGGUGGAUUUUGUUUAUUUUUUUAGCUCAUUUCCAGGGGUGUGAAUUUUUUUUUAAUAUGUGUCAUGAAUAAAGUUGUUUUUGAAA,0.579
CACAGACAACACGCAUCCACACAGACACAGAGGGAAGGGGUUGGGAUGGGGACAGGGUGCACAGCAGGGCGGGGUAGGACCCCAGCCCCU,1.36
CCUGUGCUACACAUCGUAUGUACCGAAUCGGGGCCCCCCCGGCCCCCCCGGCCCCCCCGGGAAAGUAUUAUGUUACGCCGUUCGGAUCUG,-0.426
UUUAGCCUGUGGAAUGAUAGCAGUAGGGUCCUGCAAUGGAGAUGUAACUUCCACUAUCCUUCAGACCAUCAUGGAGAAGUCAGAGACUGA,-0.974
CCUCAAGUCCUGUGCUACACAUCGUAUGUACCGAAUCGGUGGUGGUUUUUGGAAAGUAUUAUGUUACGCCGUUCGGAUCUGCACUUCCAG,0.0951
UGGGAGGUCGAUUUUGUUUAUUUUUUUAGCUCAUUUCCAGGGGUGGGAAUUUUUUUUUAAUAUGUGUCAUGAAUAAAGUUGUUUUUGAAA,-0.0477

# Block 4 — technique: RNA Bind-n-Seq; form: RNA; matrix: in vitro; tested at: 365 nM; relative to: no-protein control; reading: higher = stronger binding
# Target: RNA binding protein fox-1 homolog 2, RRM domain, GST-SBP tag (RBFOX2, Homo sapiens, UniProt O43251-10, residues 100-194)
# Notes: natural RNA segment, single round, ends assumed
# Constant ends, left off below: GGGAGUUCUACAGUCCGACGAUC … UGGAAUUCUCGGGUGCCAA
# Target sequence (chain): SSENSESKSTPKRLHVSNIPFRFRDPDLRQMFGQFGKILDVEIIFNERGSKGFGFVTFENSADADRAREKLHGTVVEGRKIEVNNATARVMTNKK
Sequence,RBNS enrichment (R)
UGACUCACAGCCCAUGCUGUCAUCUGUGGCACAAGUGGGUGUGAGUACGUCCUGCAUGCACUAACGGUGCAGAACAUGGCAUGGUGACUAGAAAGUAAAACUCCUUUUGA,0.52
UUUGUGCAUCCUACAGUGAGGAGUAACUGAUCAGGUGUCUAUAACAUUUUUCAUUCUCUCUGGAAACAGACUCAGGUUUCUUUGGACCAAAUCCAAAAGAACACAUAGCU,0.329
AGAGGUGCCGGGUUCCUAUUGGUUAGUUGGUUGUUUUUCCGUCUGAGUGAAUUUUUGCCAGUCUUGUGAGCAGAUGUACCUGAUGUAUUCUCAAUGUUCCAAGAGGUUCU,0.983
CCUGUCUGAGUAAGCCAGGGUGGCAGACGCUGGUCCCAAACCUCACCCAGCAACCAGCCUCUCAUUUUCAGGGCAGGCAGCAGAGACCCGGGUCUCUUGCCUUGAGAUGG,0.311
GAUCCCAGUGCCUAGCACUGGGUAAGCUACCCCAGACAACUAGCCUUCCUUAUACCCAAACGCUGGUCGGUGGAAAUAGAAAGUCACCCCUCCCCCAUCGCCUCUUUCUC,0.508
GGAGGCUCCCACCCACCUCUCCCAAGAGCAGACAUUAAACAUCUUUGUGCUUUGAAGAGAGUGAAUUUUGGAUAGUCUUGUGAUUCUCAGACUAACUUCCAGAAUUAUAC,0.316
CAACAUCACUGCCCUUGGACGAGACUCAGUGGAAGACACUUCCCCUCGGACCCGUUCCCAGGAGGUGCAGGGGCCCAGCAAUAAACGGCGAAAGGGGCCUUGGCUCUUGC,0.259
GCCUCAGUGUUGGCCAAACUCUGGAGUCACUGACUGGUUUGACUUUCAUACGGUGAAUAUGCAUUUGGUCUGUACUGAUCAUGGAAUAAACACAUCUCUCUUUUUUUAAU,0.339
AUAUAUAUGACAUCUAUUUUGGAAAAUGUUUGCCCUGCUGUACCUCAUUUUUAGGAGGUGUGCAUGGAUGCAAUAUAUGAAAAUGGGACAUUCUGGAACUGCUGGUCAGG,1.2
GGUUUAAAAAACGCCAUGUCAUUGAUAACUCCCUUUCUCCCUUCCCUUCUCCCGGUCUGCUGAUCACUCUUUCAUGCCUGUGUAUCCAGGGUGCUCUGUUUCCCCACCGU,1.17
UGUAAGACAGGCGUGCUAGUGAGCAGUCGUGUGUGGCUCUGGACUCUGACCCCAGAGCUCUGAAGAAUGCUCUUAUCAGAAGAUAGGAAAUGAAAAUAUCCUUUUUUAAA,0.927
CAUGAAGAGUUUGGAUAUUUUUAAAACUAUACUCGAAUUUUCAUUUUUUCCUGUCCUGUAAAGAGAGAAUUCUUAAGAUAUCAGGCAUAAUGUAUGUACCUUUUCCAGAC,0.679
